Measurements from different studies.
A part holds a random share of what one study measured.
Sequence of UniProt Q9BUB5 (whole entry, looked up): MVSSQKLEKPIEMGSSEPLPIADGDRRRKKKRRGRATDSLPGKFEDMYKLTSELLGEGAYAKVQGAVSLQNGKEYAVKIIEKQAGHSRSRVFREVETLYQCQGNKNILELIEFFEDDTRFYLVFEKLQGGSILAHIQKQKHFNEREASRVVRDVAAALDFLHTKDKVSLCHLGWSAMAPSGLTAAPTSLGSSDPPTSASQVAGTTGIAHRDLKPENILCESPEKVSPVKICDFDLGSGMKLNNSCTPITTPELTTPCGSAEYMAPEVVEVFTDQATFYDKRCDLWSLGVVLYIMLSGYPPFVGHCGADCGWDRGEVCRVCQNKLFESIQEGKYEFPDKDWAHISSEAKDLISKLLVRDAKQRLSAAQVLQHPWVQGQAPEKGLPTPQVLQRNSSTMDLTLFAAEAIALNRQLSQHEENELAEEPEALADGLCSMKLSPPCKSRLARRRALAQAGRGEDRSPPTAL
Sequence of UniProt P42680 (whole entry, looked up): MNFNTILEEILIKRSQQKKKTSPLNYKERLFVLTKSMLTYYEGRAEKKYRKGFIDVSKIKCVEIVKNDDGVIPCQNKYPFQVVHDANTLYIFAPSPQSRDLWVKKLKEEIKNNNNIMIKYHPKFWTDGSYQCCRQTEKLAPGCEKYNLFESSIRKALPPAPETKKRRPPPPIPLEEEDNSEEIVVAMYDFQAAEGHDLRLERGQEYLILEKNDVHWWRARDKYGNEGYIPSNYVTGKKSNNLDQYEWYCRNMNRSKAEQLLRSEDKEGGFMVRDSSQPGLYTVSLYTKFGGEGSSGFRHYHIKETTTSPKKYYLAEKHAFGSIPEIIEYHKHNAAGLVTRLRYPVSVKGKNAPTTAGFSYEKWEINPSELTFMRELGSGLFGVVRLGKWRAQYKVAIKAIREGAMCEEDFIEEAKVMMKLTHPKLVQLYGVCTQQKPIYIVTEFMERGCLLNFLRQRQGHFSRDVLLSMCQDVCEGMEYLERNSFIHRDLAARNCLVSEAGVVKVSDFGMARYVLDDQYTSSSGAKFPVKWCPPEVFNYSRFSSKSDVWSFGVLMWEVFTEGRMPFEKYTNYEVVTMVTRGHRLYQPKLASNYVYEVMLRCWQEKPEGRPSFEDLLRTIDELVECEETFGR
Sequence of UniProt Q15349 (whole entry, looked up): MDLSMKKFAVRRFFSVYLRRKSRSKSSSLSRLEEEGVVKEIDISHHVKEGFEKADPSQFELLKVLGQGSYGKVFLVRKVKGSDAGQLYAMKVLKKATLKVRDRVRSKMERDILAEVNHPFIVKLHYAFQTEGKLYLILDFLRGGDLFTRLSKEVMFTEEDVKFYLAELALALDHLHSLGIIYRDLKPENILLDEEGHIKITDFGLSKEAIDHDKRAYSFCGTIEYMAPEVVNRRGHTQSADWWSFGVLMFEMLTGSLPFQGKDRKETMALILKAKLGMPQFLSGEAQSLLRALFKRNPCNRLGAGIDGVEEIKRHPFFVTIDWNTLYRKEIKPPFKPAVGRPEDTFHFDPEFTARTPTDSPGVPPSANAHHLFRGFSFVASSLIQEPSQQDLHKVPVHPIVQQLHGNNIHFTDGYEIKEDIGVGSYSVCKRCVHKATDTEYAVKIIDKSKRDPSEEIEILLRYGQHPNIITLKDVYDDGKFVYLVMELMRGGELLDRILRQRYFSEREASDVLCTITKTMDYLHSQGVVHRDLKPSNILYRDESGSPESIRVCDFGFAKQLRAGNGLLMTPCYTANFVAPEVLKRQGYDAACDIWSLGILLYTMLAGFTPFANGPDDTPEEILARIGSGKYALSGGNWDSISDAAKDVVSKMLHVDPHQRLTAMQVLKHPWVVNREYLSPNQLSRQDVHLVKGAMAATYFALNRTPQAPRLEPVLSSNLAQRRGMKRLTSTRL
Sequence of UniProt P31152 (whole entry, looked up): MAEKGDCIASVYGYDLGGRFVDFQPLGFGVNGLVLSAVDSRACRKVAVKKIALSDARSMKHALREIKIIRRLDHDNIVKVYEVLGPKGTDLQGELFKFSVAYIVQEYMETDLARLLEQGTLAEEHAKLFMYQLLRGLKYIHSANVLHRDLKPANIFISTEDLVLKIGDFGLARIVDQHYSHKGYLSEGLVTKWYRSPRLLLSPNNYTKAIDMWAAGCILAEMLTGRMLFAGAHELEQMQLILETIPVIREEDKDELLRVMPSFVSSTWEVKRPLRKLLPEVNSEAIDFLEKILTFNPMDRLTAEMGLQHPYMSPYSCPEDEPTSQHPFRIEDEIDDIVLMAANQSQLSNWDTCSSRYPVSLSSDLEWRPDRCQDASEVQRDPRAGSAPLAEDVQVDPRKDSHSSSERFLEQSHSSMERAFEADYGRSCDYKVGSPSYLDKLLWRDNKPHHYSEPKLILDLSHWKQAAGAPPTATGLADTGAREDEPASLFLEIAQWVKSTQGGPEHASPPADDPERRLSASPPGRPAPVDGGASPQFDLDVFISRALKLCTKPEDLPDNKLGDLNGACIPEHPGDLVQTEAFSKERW
Sequence of UniProt Q00526 (whole entry, looked up): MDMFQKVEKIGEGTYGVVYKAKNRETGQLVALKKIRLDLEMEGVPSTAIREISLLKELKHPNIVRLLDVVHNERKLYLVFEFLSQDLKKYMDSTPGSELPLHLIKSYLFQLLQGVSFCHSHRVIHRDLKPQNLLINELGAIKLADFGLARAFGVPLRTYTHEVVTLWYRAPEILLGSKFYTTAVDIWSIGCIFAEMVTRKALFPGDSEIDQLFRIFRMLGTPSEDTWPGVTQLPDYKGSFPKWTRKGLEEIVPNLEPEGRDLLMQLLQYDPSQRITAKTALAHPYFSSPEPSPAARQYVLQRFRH
Sequence of UniProt Q96SB4 (whole entry, looked up): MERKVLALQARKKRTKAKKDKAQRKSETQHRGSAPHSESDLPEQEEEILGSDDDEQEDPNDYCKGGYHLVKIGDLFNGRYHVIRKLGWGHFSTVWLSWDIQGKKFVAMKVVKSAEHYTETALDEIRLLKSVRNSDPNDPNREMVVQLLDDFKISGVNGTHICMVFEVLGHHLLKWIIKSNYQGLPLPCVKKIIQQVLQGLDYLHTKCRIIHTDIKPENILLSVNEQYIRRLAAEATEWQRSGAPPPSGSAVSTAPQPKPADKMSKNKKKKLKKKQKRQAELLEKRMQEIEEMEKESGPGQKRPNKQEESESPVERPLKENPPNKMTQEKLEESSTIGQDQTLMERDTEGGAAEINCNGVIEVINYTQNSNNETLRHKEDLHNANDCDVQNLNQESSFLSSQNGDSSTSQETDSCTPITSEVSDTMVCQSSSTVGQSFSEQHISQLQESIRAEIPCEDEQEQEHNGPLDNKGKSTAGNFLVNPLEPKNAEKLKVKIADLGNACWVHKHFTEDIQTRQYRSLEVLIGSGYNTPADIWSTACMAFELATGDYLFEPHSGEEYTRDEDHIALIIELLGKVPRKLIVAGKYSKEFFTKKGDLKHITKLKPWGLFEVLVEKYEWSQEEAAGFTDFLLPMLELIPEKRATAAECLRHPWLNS
Sequence of UniProt Q86Y07 (whole entry, looked up): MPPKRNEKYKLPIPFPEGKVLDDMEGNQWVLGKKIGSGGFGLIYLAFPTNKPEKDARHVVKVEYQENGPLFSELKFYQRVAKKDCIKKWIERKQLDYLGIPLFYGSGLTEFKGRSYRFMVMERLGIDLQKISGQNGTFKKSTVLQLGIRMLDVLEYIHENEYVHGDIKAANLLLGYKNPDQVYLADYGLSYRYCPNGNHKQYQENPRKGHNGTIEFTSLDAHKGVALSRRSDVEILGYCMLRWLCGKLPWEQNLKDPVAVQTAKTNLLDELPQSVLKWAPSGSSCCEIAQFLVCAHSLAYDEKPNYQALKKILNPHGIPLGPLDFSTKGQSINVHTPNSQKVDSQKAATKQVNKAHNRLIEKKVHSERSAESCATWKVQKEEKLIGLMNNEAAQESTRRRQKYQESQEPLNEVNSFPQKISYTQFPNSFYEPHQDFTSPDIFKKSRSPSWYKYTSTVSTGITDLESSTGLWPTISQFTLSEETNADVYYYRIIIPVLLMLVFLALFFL

Study 1
Host: mouse
Matrix: microsomes or S9
Tested at: 2 µM
Time: 0.5 h
Structure (SMILES) | remaining compound [%]
Cc1ccccc1-c1cccc2nc(-c3ccccc3)nn12 | 0.209
CCOc1nnc(Cc2ccccc2)c2ccccc12 | 2.23
CCNC(=O)N1CCC(CCOC)(NC(=O)NCC2CCCO2)CC1 (stereo not shown) | > 100
CC1CCCC(=O)CCC/C=C/c2cc3c(c(O)c2C(=O)O1)C(c1ccc(OCC(N)=O)cc1)CC(=O)O3 (stereo not shown) | 8.26
COc1cc2c(cc1OC)C1(c3ccoc3)OC(=O)C(=O)N1CC2 (stereo not shown) | 2.04
CNC(=O)/C(=C/OC)n1c(-c2ccc(F)cc2F)noc1=O | 33.7
CCOC(=O)C1=C(O)CN(Cc2ccc(F)cc2)C1=O | 85.8
O=C(c1ccc(F)cc1)c1c2nc[nH]c(=O)c2c2ccccn12 | 56.1
CCCn1c(=O)c2ccc(C(=O)NC3CCCC3)cc2n2c(=O)n(Cc3ccc(C)cc3)nc12 | 23.9
CCN(CC)C(=O)c1cn(C2CCC23CCN(S(=O)(=O)CC)CC3)nn1 (stereo not shown) | 65.8
Cc1ccc(S(=O)(=O)N(C)c2ccccc2)s1 | 0.606

Study 2
SMILES: CNCc1ccccc1-c1csc([C@@H](C)Nc2nc(C)nc3cc(OC)c(OC)cc23)c1
Observed: cell-free assay
Technique: competition with immobilised ligand
Tested at: 1 µM
target | remaining binding [%]
TEC (Homo sapiens, UniProt P42680) | 100
VRK2 (Homo sapiens, UniProt Q86Y07) | 89
MET (Homo sapiens, UniProt P08581, Y1235D) | 100
CDK3 (Homo sapiens, UniProt Q00526) | 100
MKNK1 (Homo sapiens, UniProt Q9BUB5) | 83
AKT2 (Homo sapiens, UniProt P31751) | 72
HCK (Homo sapiens, UniProt P08631) | 97
PIK3CG (Homo sapiens, UniProt P48736) | 67
COQ8B (Homo sapiens, UniProt Q96D53) | 65
CDK11A (Homo sapiens, UniProt Q9UQ88) | 91
CASK (Homo sapiens, UniProt O14936) | 81
MAPK4 (Homo sapiens, UniProt P31152) | 94
TAOK2 (Homo sapiens, UniProt Q9UL54) | 86
Ribosomal protein S6 kinase alpha-2, N-terminal kinase domain (RPS6KA2, Homo sapiens, UniProt Q15349) | 100
SRPK1 (Homo sapiens, UniProt Q96SB4) | 90

Study 3
Compound: C=CCc1ccc(O)c(-c2cc(CC=C)ccc2O)c1
Observed: chloride current
Technique: whole-cell voltage clamp
ANO1 del476-501/R561A: Anoctamin-1 (ANO1, Homo sapiens, UniProt Q5XXA6, del476-501/R561A)
Sequence of UniProt Q5XXA6 (whole entry, unmodified, looked up): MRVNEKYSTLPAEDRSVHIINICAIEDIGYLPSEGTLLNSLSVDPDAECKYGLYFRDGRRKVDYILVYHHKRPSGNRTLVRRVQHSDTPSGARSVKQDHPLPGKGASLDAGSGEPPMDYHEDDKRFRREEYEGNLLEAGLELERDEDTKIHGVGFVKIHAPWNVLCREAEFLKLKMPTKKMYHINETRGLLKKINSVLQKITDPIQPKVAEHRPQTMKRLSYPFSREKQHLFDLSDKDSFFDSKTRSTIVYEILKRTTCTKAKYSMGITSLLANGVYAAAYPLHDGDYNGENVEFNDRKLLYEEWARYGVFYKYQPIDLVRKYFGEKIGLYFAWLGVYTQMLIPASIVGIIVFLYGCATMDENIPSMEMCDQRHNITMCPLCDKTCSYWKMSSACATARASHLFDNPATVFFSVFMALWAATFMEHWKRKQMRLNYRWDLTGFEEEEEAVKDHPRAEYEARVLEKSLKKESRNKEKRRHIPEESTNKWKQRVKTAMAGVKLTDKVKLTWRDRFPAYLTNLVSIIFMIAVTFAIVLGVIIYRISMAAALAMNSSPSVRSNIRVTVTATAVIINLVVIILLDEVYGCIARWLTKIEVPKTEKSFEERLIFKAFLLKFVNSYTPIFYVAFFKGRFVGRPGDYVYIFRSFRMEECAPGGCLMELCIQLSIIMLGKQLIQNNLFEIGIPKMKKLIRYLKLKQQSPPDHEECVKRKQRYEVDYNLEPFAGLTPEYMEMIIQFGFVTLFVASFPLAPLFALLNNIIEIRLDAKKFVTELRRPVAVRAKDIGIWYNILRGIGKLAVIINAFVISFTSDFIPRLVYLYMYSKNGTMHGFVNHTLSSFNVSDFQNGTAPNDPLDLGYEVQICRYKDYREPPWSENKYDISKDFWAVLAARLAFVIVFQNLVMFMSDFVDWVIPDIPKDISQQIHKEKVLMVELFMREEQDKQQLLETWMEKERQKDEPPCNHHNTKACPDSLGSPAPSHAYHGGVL
target | mode | tested at | notes | IC50 [µM]
Anoctamin-1 (ANO1, Homo sapiens, UniProt Q5XXA6, D383A/del476-501) | – | – | membrane voltage -80 mV | 37.3
Anoctamin-1 (ANO1, Homo sapiens, UniProt Q5XXA6, del476-501/L548A) | – | – | membrane voltage 80 mV | 34.9
Anoctamin-1 (ANO1, Homo sapiens, UniProt Q5XXA6, del476-501/F627A) | – | – | membrane voltage 60 mV | 23.6
Anoctamin-1 (ANO1, Homo sapiens, UniProt Q5XXA6, del476-501/E649I) | inhibitor | – | E623I mutant at 60 mV | 120
ANO1 del476-501/R561A | – | – | membrane voltage -40 mV | 27
Anoctamin-1 (ANO1, Homo sapiens, UniProt Q5XXA6, del476-501/K629R) | inhibitor | 40 mV holding voltage | – | 221
Anoctamin-1 (ANO1, Homo sapiens, UniProt Q5XXA6, del476-501/R541K) | inhibitor | – | R515K mutant at -80 mV | 25.3
ANO1 del476-501/R561A | – | – | membrane voltage -60 mV | 32.9
Anoctamin-1 (ANO1, Homo sapiens, UniProt Q5XXA6, del476-501/R541I) | inhibitor | – | R515I mutant at -60 mV | 41.9
Anoctamin-1 (ANO1, Homo sapiens, UniProt Q5XXA6, del476-501/M544A) | inhibitor | – | mutant M518A | 99

Study 4
Cell line: HaCaT
Tested at: 100 µM
Time: 36 h
SMILES | viability [%]
CC1(C)CCC(CN2CCN(c3ccc(C(=O)NS(=O)(=O)c4ccc(NCC5CCOCC5)c([N+](=O)[O-])c4)c(Oc4cnc5[nH]ccc5c4)c3)CC2)=C(c2ccc(Cl)cc2)C1 | 10.5
OC[C@@H](O)[C@H](O)[C@@H](O)CO | 100
C=C[C@H]1[C@H](O[C@@H]2O[C@H](CO)[C@@H](O)[C@H](O)[C@H]2O)OC=C2C(=O)OCC[C@]21O | 94.8
Nc1nnc(-c2cccc(Cl)c2Cl)c(N)n1 | 89
Cc1cn(-c2cc(NC(=O)c3ccc(C)c(Nc4nccc(-c5cccnc5)n4)c3)cc(C(F)(F)F)c2)cn1 | 5.79
CC(C)C[C@H](NC(=O)[C@H](CCc1ccccc1)NC(=O)CN1CCOCC1)C(=O)N[C@@H](Cc1ccccc1)C(=O)N[C@@H](CC(C)C)C(=O)[C@@]1(C)CO1 | 9.71
CC(=O)N(CC(O)CO)c1c(I)c(C(=O)NCC(O)CO)c(I)c(C(=O)NCC(O)CO)c1I (mixture of isomers) | 96.7
